Measured values gathered from unrelated publications.
Compare with care: the assays were run in different laboratories. ± gives the spread as reported.
CYP2B6: Cytochrome P450 2B6 (CYP2B6, Homo sapiens, UniProt P20813)
Sequence of UniProt P34972 (whole entry, unmodified, looked up): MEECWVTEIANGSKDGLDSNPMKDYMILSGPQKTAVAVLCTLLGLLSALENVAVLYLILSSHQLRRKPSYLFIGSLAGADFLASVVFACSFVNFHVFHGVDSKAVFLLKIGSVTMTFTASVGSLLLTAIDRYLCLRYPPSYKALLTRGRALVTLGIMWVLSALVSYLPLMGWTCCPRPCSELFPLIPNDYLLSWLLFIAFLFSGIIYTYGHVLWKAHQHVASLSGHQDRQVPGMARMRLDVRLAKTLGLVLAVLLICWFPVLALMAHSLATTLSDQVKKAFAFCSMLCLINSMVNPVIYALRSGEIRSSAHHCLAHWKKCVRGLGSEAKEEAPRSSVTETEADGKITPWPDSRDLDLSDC
Sequence of UniProt P20813 (whole entry, looked up): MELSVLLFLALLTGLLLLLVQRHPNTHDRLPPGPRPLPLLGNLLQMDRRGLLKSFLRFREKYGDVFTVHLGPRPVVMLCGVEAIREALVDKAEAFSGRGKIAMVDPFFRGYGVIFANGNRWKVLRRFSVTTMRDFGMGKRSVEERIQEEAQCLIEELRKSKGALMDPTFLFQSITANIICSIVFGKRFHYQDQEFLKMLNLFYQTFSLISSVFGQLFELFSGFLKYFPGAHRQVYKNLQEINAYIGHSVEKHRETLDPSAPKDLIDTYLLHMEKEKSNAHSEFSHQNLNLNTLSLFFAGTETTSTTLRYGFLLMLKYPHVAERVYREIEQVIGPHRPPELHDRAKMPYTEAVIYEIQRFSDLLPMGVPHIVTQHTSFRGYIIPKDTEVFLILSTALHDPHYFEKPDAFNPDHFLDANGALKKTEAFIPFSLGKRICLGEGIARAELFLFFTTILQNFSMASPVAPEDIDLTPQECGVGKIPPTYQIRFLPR
Sequence of UniProt P22001 (whole entry, looked up): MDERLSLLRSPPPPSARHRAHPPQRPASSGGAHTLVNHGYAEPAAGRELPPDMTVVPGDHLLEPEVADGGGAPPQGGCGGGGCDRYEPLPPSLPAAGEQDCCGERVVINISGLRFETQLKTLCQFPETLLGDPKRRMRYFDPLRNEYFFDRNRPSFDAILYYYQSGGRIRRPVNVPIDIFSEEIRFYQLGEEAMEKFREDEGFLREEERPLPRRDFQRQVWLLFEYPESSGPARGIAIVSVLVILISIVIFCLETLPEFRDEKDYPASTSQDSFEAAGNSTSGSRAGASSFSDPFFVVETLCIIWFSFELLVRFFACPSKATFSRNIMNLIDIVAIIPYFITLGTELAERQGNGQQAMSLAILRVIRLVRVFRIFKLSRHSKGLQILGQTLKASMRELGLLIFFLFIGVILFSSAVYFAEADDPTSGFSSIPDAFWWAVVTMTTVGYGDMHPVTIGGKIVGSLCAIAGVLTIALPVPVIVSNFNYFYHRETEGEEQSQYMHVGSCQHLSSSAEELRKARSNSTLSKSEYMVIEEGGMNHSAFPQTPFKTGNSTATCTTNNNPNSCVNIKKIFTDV
Sequence of UniProt P21554 (whole entry, unmodified, looked up): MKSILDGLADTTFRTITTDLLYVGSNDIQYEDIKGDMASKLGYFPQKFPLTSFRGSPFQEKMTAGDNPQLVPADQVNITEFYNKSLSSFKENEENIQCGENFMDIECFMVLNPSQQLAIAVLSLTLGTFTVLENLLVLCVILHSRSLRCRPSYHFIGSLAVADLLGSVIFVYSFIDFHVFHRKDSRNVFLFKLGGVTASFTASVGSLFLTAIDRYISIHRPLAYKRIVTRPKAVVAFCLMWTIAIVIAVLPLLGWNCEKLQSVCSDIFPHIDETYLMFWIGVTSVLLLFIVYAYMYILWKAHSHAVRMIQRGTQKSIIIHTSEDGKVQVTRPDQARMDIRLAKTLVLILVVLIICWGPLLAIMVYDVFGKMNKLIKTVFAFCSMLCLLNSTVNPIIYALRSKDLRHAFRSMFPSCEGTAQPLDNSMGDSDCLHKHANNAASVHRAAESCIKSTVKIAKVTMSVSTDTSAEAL
Sequence of UniProt Q01959 (whole entry, looked up): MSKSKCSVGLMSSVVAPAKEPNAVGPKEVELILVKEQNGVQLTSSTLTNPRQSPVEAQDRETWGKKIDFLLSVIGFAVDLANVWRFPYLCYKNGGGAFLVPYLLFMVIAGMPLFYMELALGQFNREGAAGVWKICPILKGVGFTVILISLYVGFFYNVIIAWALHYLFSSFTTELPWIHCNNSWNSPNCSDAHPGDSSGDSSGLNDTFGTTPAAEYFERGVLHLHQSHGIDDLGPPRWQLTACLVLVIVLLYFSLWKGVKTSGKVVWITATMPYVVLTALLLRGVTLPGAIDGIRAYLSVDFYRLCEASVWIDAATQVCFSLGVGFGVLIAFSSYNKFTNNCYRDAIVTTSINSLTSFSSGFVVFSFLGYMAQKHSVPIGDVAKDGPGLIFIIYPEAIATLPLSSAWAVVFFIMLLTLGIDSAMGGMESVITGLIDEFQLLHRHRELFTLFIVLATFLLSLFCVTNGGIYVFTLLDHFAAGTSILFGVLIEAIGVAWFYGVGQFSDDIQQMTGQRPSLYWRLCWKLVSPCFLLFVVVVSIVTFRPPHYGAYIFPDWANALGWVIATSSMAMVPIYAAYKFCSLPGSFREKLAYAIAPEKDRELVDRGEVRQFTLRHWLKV
Sequence of UniProt Q66478 (whole entry, looked up): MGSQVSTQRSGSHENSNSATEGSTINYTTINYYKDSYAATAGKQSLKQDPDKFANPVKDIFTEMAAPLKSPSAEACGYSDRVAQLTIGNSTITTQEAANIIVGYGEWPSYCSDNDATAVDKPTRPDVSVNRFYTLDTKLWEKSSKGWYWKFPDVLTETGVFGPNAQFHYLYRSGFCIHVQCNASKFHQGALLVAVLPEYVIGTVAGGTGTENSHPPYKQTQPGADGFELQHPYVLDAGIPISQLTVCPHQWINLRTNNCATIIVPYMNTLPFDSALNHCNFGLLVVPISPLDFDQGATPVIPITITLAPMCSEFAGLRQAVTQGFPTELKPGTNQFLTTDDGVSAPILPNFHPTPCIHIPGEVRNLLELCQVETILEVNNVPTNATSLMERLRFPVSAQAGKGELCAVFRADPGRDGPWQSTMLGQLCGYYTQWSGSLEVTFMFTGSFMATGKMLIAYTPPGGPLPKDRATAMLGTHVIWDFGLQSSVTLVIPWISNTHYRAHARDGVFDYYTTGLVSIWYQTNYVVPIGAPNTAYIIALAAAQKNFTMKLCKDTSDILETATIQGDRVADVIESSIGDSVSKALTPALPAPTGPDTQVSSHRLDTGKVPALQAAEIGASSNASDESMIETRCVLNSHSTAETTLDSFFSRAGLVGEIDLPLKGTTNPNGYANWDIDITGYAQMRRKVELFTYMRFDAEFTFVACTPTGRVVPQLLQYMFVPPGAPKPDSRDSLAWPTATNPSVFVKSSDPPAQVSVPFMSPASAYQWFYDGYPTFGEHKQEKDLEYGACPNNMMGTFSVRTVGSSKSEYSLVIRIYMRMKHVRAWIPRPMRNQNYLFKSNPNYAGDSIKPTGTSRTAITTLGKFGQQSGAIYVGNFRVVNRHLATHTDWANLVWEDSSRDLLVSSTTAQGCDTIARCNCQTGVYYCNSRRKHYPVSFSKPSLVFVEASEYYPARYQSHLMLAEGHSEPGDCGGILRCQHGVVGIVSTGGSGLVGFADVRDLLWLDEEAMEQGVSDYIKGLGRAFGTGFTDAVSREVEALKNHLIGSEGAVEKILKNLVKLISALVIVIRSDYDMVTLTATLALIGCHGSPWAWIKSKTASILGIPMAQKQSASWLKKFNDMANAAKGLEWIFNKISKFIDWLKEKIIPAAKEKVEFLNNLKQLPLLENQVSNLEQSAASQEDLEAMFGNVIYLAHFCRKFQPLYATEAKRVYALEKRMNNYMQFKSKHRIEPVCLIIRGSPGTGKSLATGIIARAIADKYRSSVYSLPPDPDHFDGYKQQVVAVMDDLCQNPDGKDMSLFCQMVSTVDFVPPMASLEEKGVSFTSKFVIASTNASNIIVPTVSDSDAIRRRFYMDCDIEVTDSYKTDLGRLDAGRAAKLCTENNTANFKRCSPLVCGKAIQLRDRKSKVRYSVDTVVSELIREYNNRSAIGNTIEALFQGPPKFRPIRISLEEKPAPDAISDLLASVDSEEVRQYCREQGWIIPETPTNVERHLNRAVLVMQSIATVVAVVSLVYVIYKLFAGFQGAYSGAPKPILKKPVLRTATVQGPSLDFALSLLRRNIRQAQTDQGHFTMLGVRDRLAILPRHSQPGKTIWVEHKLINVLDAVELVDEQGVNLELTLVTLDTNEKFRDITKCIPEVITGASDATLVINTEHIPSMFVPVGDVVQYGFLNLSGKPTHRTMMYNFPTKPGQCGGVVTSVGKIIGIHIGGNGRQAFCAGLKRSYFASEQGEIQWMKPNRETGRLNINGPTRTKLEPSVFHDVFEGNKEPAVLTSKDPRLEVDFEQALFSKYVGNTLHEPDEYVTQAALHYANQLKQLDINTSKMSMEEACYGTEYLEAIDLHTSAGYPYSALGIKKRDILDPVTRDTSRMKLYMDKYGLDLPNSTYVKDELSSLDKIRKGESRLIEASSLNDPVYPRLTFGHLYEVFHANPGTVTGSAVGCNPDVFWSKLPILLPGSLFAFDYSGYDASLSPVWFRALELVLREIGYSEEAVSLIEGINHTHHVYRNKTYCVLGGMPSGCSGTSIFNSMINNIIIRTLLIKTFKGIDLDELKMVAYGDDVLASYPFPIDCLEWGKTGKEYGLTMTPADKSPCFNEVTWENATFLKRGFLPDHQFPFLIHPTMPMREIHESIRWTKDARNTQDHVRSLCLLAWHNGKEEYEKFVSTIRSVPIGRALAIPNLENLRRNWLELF
Sequence of UniProt P40337 (whole entry, looked up): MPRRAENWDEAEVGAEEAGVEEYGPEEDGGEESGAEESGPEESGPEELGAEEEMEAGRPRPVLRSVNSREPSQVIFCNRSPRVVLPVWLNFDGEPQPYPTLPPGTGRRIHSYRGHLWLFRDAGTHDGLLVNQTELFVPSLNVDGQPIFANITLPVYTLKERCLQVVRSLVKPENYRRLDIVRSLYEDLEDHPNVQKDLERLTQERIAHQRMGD

CCC(CC)O[C@@H]1C=C(C(=O)O)C[C@H](NC(=N)N)[C@H]1NC(C)=O — Ki (neuraminidase (Influenza A virus, UniProt C3W6G3); DIANA; pH 7.4): 570 ± 200 nM
CCC[C@H](C(=O)c1ccccc1)N1CCCC1 — Ki (Sodium-dependent dopamine transporter (SLC6A3, Homo sapiens, UniProt Q01959); transporter uptake, inhibitor, radiometric): 370 nM
CCCCCn1cc(C(=O)c2cccc3ccccc23)c2ccccc21 — EC50 (Cannabinoid receptor 2 (CNR2, Homo sapiens, UniProt P34972); β-arrestin recruitment, agonist, BRET): 20.9 nM
CCn1c(NCc2ccc(N3N=C(c4ccccc4)CC3c3ccccc3)cc2)nc2ccccc21 (stereo not shown) — IC50 (Genome polyprotein, protease (Enterovirus A71, UniProt Q66478); enzyme activity, inhibitor): 4700 nM
CC1=CC(C)=[N+]2C1=Cc1ccc(CCC(=O)NCCOCCOCCOCCOCC(=O)N[C@H](C(=O)N3C[C@H](O)C[C@H]3C(=O)NCc3ccc(-c4scnc4C)cc3)C(C)(C)C)n1[B-]2(F)F — Kd (von Hippel-Lindau disease tumor suppressor, with elongin B/C (VHL, Homo sapiens, UniProt P40337); binding, TR-FRET; 300 min, together with: BODIPY FL VH032): 3.04 nM
CC(C)C[C@H](NC(=O)OCc1ccccc1)C(=O)N[C@@H](C[C@@H]1CCNC1=O)C(O)S(=O)(=O)O (stereo partly shown) — EC50 (Replicase polyprotein 1ab, main protease (rep, Human coronavirus NL63, UniProt P0C6X5); viral replication): > 50000 nM
CCCCCc1cc(O)c2c(c1)OC(C)(C)C1CCC(CO)=CC21 (stereo not shown) — Ki (CYP2B6; enzyme activity, inhibitor; human, liver microsomes; pH 7.4): 2800 nM
CCCCCc1cc(O)c2c(c1)OC(C)(C)C1=C2[C@@H](O)[C@@](C)(O)CC1 — Ki (rat intestinal maltase; inhibitor): 216000 nM
CCCCCn1cc(C(=O)c2cccc3c2CC(C)(C)C3)c2ccccc21 — EC50 (Cannabinoid receptor 2 (CNR2, Homo sapiens, UniProt P34972, V261L); G protein activation, agonist, BRET): 7.94 nM
CSCC[C@@H]1NC(=O)[C@H](CCCNC(=N)N)NC(=O)[C@H](Cc2ccc(O)cc2)NC(=O)[C@@H](NC(=O)[C@H](CCCNC(=N)N)NC(=O)[C@H](CCCCN)NC(=O)[C@H](CC(=O)O)NC(=O)[C@H](C)N)CSSC[C@@H](C(=O)N[C@@H](CCCNC(=N)N)C(=O)N[C@@H](Cc2ccc(O)cc2)C(=O)NCC(=O)O)NC(=O)CNC(=O)[C@H](CCCCN)NC(=O)[C@H](CCCCN)NC(=O)[C@@H]2CSSC[C@H](NC1=O)C(=O)N[C@@H](CCC(N)=O)C(=O)N[C@@H](CCCNC(=N)N)C(=O)N[C@@H](Cc1ccc(O)cc1)C(=O)N[C@@H](Cc1c[nH]cn1)C(=O)N[C@@H](CCC(N)=O)C(=O)N[C@@H](CCCNC(=N)N)C(=O)N[C@@H](CCCNC(=N)N)C(=O)N[C@@H](CCC(N)=O)C(=O)N[C@@H](CCCNC(=N)N)C(=O)N[C@@H](CCCNC(=N)N)C(=O)N[C@@H](CCC(N)=O)C(=O)N2 — EC50 (Potassium voltage-gated channel subfamily A member 3 (KCNA3, Homo sapiens, UniProt P22001)): 70.4 ± 2.9 nM
CCCCCc1cc(O)c2c(c1)OC(C)(C)c1cc(O)c(C)cc1-2 — Ki' (rat intestinal maltase; inhibitor): 181000 nM
CC(=O)NC1C(OC2C(CO)OC(OC3C(CO)OC(O)C(O)C3O)C(O)C2OC2(C(=O)O)CC(O)C(NC(C)=O)C(C(O)C(CO)OC3(C(=O)O)CC(O)C(NC(C)=O)C(C(O)C(CO)OC4(C(=O)O)CC(O)C(NC(C)=O)C(C(O)C(O)CO)O4)O3)O2)OC(CO)C(O)C1O (stereo not shown) — Kd (hly, domain 4 (Listeria monocytogenes, UniProt P13128); binding): 10 nM
CCCCCn1cc(C(=O)c2ccc3ccccc3c2)c2ccccc21 — EC50 (Cannabinoid receptor 1 (CNR1, Homo sapiens, UniProt P21554, I267L); G protein activation, agonist, BRET): 135 nM
CSCC[C@H](NC(=O)[C@@H]1CSSC[C@H](NC(=O)[C@H](CCCCN)NC(=O)[C@H](Cc2ccc(O)cc2)NC(=O)CNC(=O)[C@@H](N)CC(C(=O)O)C(=O)O)C(=O)N[C@@H](C(C)C)C(=O)N[C@H](Cc2c[nH]c3ccccc23)C(=O)N[C@@H](CCCCN)C(=O)N[C@@H]([C@@H](C)O)C(=O)N1)C(=O)N1C[C@H](O)C[C@H]1C(=O)N[C@@H](C)C(=O)O — EC50 (Somatostatin receptor type 1 (SSTR1, Homo sapiens, UniProt P30872); β-arrestin recruitment, agonist): 2900 nM
CCCCCc1cc(O)c2c(c1)OC(C)(C)C1CCC(C)=CC21 (single isomer, unassigned; (-)) — Ki (CYP2B6; inhibitor; human, pooled liver microsomes; pH 7.4, together with: bupropion 12.5 to 100 µM): 380 ± 29 nM
CCCCCn1cc(C(=O)c2ccc3c(c2)CC(C)(C)C3)c2ccccc21 — EC50 (Cannabinoid receptor 2 (CNR2, Homo sapiens, UniProt P34972, I110L); G protein activation, agonist, BRET): 6920 nM

Some of these lines once more:
CC1=CC(C)=[N+]2C1=Cc1ccc(CCC(=O)NCCOCCOCCOCCOCC(=O)N[C@H](C(=O)N3C[C@H](O)C[C@H]3C(=O)NCc3ccc(-c4scnc4C)cc3)C(C)(C)C)n1[B-]2(F)F — Kd (von Hippel-Lindau disease tumor suppressor, with elongin B/C (VHL, Homo sapiens, UniProt P40337); binding, TR-FRET; 300 min, together with: BODIPY FL VH032): 3.04 nM
CC(C)C[C@H](NC(=O)OCc1ccccc1)C(=O)N[C@@H](C[C@@H]1CCNC1=O)C(O)S(=O)(=O)O (stereo partly shown) — EC50 (Replicase polyprotein 1ab, main protease (rep, Human coronavirus NL63, UniProt P0C6X5); viral replication): > 50000 nM
